Experimental data pooled from the literature.
Each line is one published result; not all experiments were run side by side. “And” joins repeats or separate records; there may be more than shown. Numbers after ± are the reported error.
UniProt Q05513, sequence (whole entry, looked up): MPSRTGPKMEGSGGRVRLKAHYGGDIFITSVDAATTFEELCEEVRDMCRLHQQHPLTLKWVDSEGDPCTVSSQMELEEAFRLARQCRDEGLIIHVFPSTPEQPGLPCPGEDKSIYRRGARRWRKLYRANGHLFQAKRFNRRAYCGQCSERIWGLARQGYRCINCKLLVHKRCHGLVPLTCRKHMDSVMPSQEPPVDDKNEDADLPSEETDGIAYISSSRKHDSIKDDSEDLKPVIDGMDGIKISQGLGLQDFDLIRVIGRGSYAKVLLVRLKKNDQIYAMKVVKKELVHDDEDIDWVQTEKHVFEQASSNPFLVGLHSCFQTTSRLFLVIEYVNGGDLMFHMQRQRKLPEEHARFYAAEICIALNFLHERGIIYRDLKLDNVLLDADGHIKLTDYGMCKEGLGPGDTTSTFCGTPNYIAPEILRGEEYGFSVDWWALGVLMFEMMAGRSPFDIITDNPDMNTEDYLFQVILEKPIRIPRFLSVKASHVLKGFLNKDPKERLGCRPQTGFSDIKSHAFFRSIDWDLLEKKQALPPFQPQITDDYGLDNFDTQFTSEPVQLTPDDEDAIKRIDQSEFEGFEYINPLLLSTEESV
UniProt P10635, sequence (whole entry, looked up): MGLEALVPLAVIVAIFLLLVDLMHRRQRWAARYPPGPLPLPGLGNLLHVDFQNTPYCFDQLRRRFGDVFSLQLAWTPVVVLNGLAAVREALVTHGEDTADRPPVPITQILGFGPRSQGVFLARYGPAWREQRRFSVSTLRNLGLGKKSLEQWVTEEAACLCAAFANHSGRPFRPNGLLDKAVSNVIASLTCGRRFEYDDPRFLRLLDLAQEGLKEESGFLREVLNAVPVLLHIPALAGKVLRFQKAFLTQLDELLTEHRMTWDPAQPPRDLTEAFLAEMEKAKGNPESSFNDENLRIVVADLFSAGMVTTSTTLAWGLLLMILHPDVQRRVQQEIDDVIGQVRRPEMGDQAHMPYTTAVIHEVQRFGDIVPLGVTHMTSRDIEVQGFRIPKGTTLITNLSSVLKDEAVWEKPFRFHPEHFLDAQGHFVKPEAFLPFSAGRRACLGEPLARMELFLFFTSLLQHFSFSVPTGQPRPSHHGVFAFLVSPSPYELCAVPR

Structure (SMILES)	tested on	assay	system	setting	scale	measurement	result
CC(=O)Oc1ccccc1C(=O)[Se]CC(=O)Nc1cccc(C(F)(F)F)c1	NCI60 breast subpanel	NCI60 five-dose screen	–	–	–	GI50	2.71 µM
CC(C)c1ccc(N(C)c2ccc3c(c2)OCC[C@H]3CNc2cnccc2C(=O)O)cc1	OVISE	cell growth or viability, ATP luminescence	–	7 days	–	IC50	0.024 µM
CC(C)(C)c1cc(-c2ccc3cccnc3n2)nc(-c2ccc3cccnc3n2)c1.[Cl-].[Cl-].[Ru+2].c1ccc2cc3nc4c5cccnc5c5ncccc5c4nc3cc2c1	B16-F10	cytotoxicity, resazurin	–	dark	–	EC50	20.8 µM
N#Cc1cccc(/C=C/C(=O)c2ccc(O)cc2)c1	U-87 MG	measured: ALOXE3	–	concentration not given	reference: untreated	fold change	31
CC(C)C[C@H](NC(=O)[C@H](Cc1ccc(O)cc1)NC(=O)[C@@H](CCCNC(=N)N)NC(=O)[C@@H](CO)NC(=O)[C@H](Cc1ccccc1)NC(=O)[C@H](CC1CCCCC1)NC(=O)[C@H](CC(=O)O)NC(=O)CN1CCN(CC(=O)O)CCN(CC(=O)O)CCN(CC(=O)O)CC1)C(=O)N[C@@H](Cc1c[nH]c2ccccc12)C(=O)N[C@@H](CO)C(=O)O [copper-64 labelled]	–	–	human, thyroid	concentration not given, 3 h	–	activity concentration	2650 Bq/mL and 1740 Bq/mL and 1420 Bq/mL and 2340 Bq/mL and 1480 Bq/mL and 1790 Bq/mL
C=CC(=O)N1CCCC(n2c(=O)c3ncccc3n(Cc3ccc(Oc4ccccc4)cc3)c2=O)C1 (stereo not shown)	SU-DHL-8	cell growth or viability, MTT	–	72 h	–	IC50	0.3 µM
CC(=O)NCC(=O)N[C@@H](Cc1ccccc1)C(=O)N[C@@H](Cc1ccccc1)C(=O)N[C@@H](Cc1ccc(O)cc1)C(=O)NCC(=O)N[C@@H](Cc1ccc(O)cc1)C(=O)NCC(=O)N[C@@H](CO)C(=O)N[C@@H](CO)C(=O)N[C@@H](CO)C(=O)N[C@@H](CCCNC(=N)N)C(=O)N[C@@H](CCCNC(=N)N)C(=O)N[C@@H](C)C(=O)N1CCC[C@H]1C(=O)N[C@@H](CCC(N)=O)C(=O)N[C@H](C(=O)O)[C@@H](C)O	mouse dermal papilla cells	western blot	–	100 nM	reference: untreated	IGF-1R phosphorylation	1.34 fold
C=CC(=O)Nc1cccc(Cn2ncc3cnc(Nc4cnn(CCOC)c4)nc32)c1	PKN1 human	binding, KINOMEscan	–	100 nM	lower = stronger binding	percent of control	100%
Cc1ncsc1-c1ccc(C(C)NC(=O)C2CC(O)CN2C(=O)C(NC(=O)CCCCCCCCCCN2CCCC(Nc3ncc(Cl)c(Nc4ccccc4S(=O)(=O)C(C)C)n3)C2)C(C)(C)C)cc1 (stereo not shown)	22Rv1	RNA-seq, measured: THNSL1 mRNA	–	concentration not given	reference: DMSO	log2 fold change	-1.06
O=C(Nc1cnccc1-c1ccc([18F])nc1)c1ccnc(NC(=O)C2CC2)c1	–	ex vivo gamma counting	GSK-3β transgenic mice, early-stage, cecum	intravenous, 120 min	–	mean SUV	15
Cn1ncc2cc(-c3cncc(Cl)c3N3CCC4(CCNC4=O)CC3)ccc21	LS174T	gene expression, microarray, measured: PLAC8 mRNA	–	concentration not given, 4 h	reference: untreated cells	log2 fold change	2.17
C1=[N+]2CCCC[N+]3=Cc4ccc5[n]4[Au-]23[n]2c1ccc2-c1nc2ccccc2nc1-5.F[P-](F)(F)(F)(F)F	U-251	NCI60 five-dose screen	–	–	–	TGI	5.41 -log M
CN1CCCNC(=O)c2cccc(c2)C(=O)NCCCN(C)CCCNc2cccc3c2C(=O)c2cccc(c2C3=O)NCCC1	SAS	RNA-Seq, measured: WASHC4 mRNA	–	1 µM, 6 h	reference: untreated cells	log2 fold change	-1.01
CCOc1cncc(-c2ccc(NC(=O)C3(c4ccnc(NS(=O)(=O)C5CC5)n4)CCOCC3)nc2)n1	NOMO-1	cell proliferation, CellTiter-Glo	–	72 h	–	IC50	0.611 µM
CC(C)(C)c1cc(-c2ccc3cc4ccccc4nc3n2)nc(-c2ccc3cc4ccccc4nc3n2)c1.Cc1ccncc1.[Cl-].[Cl-].[Ru+2].c1ccc2cc3nc4c5cccnc5c5ncccc5c4nc3cc2c1	B16-F10	–	–	visible light 100 J/cm2	reference: dark EC50 over light EC50	phototherapeutic index	9
CCCCCCCCCCCCCCCC(=O)OCC(CSC[C@H](N)C(=O)N[C@@H](CO)C(=O)N[C@@H](CCCCN)C(=O)N[C@@H](CCCCN)C(=O)N[C@@H](CCCCN)C(=O)N[C@@H](CCCCN)C(=O)NCCCCCC(=O)N[C@@H](CCCCN)C(=O)N[C@@H](CC(C)C)C(=O)N[C@H](C(=O)N[C@@H](Cc1ccccc1)C(=O)N[C@@H](Cc1ccccc1)C(=O)N[C@@H](Cc1ccc2ccccc2c1)C(=O)O)C(C)C)OC(=O)CCCCCCCCCCCCCCC (stereo partly shown)	BV-2	RNA-seq, measured: Ccl22	–	concentration not given	–	mRNA level	0.501 FPKM and 0.39 FPKM and 0.556 FPKM
CN(C)CCN1CCN(c2ccc3nc(-c4ccc5nc(-c6ccc(C(F)(F)F)cc6)[nH]c5c4)[nH]c3c2)CC1	NCI/ADR-RES	cell growth, NCI-60 SRB	–	10 µM, 48 h	–	growth percent	97.9%
Cc1ccncc1.[Cl-].[Cl-].[Ru+2].c1cc(-c2ccc3cccnc3n2)nc(-c2ccc3cccnc3n2)c1.c1ccc2cc3nc4c5cccnc5c5ncccc5c4nc3cc2c1	B16-F10	–	–	light 633 nm	reference: dark EC50 over light EC50	phototherapeutic index	30
CCC1NC2CC3(C(=O)N(OC)c4ccccc43)C3OCC2C1C3O (stereo not shown)	HT-22	CCK-8	–	up to 100 µM, 24 h	–	viability	no effect

Structure (SMILES)	tested on	assay	system	setting	scale	measurement	result
COC1CN([C@H]2CC[C@H]([C@@]3(C)Oc4c(Cl)cc(C(=O)NCc5c(SC)cc(C)[nH]c5=O)c(C)c4O3)CC2)C1	–	RNA-seq, measured: C3orf70 mouse homolog	mouse, HT-1376 xenograft, whole blood	dose not given	reference: vehicle	log2 fold change	0.929
C[n+]1ccc(/C=N/NC(=O)c2cncc(C(=O)N/N=C/c3cc[n+](C)cc3)n2)cc1	telomeric G4 DNA hybrid-2	FRET melting	–	1 µM, DNA 0.2 µM	–	ΔTm	5.6 ± 0.1 °C
Cc1nn(-c2cccc(N)c2)c(=O)c2cnc(Nc3ccc(N4CCNCC4)cc3)nc12	PRKCZ (Homo sapiens, UniProt Q05513)	kinase activity, inhibitor, SelectScreen kinase profiling	–	–	–	IC50	> 10 µM
CCN(CC)CC(=O)Nc1cccc(-n2cc(-c3ccc4ccc(-c5cn(-c6cccc(NC(=O)CN(CC)CC)c6)nn5)cc4c3)nn2)c1	RCC4	PCR angiogenesis array, measured: PLAU	–	5 x IC50, 4 h, normoxia	reference: untreated	fold regulation	-1.36
CC(=O)[O-].O.[Cu+2].[O-]c1ccc(Br)cc1C=NCCN1CCOCC1	–	hydroxyl radical scavenging	–	160 µM	–	inhibition	39.2%
O=C1C2CC3CC1CC(C(=O)N1CCN(c4ccc([N+](=O)[O-])c5ncccc45)CC1)(C3)C2	Escherichia coli	Ames test	WP2 uvrA pKM101	0.78 µg/well, without S9 activation	–	revertant colony count	25 colonies/well
NC(=O)c1ccc(-c2ccccc2Cl)c2c3c([nH]c12)CCC(N)C3 (stereo not shown)	HuCCT-1	cell growth or viability	–	96 h	–	IC50	0.00506 µM
CNS(=O)(=O)Nc1nccc(Cc2c(C)c3ccc(Oc4ncccc4F)cc3oc2=O)c1F	CFPAC-1	cell viability	–	7 days	–	IC50	0.358 µM
CNC(=O)C1CCCN(C(=O)C2CC3CCC2N3C(=O)[C@@H]2C[C@@H](O)CN2C(=O)NCc2cccc(Cl)c2F)C1 (mixture of isomers)	Cytochrome P450 2D6 (CYP2D6, Homo sapiens, UniProt P10635)	enzyme activity, inhibitor, time-dependent inhibition	–	0.0686 µM, preincubated without NADPH	–	dextrorphan formation	152 ng/mL
CO[C@@H]1[C@@H](OC(N)=O)[C@@H](O)[C@H](Oc2ccc3c(O)c(NC(=O)c4ccc(O)c(CC=C(C)C)c4)c(=O)oc3c2C)OC1(C)C	HCT-116 parental	–	–	250 µM	reference: untreated	colony survival	6.46%
O=C(N/N=C/c1cc[n+](CC2CC2)c2ccccc12)c1cccc(C(=O)N/N=C/c2cc[n+](CC3CC3)c3ccccc23)c1	telomeric G4 DNA hybrid-2	FRET melting	–	1 µM, DNA 0.2 µM	–	ΔTm	14 ± 0.7 °C
[BH3-][P+]1(c2ccccc2)CCCCC1	SW-620	MTT	–	72 h	reference: IC50 HaCaT over IC50 SW-620	selectivity index	13.1
Nc1ncc(-c2cc(-c3cnn(CC(F)(F)F)c3)ncc2F)nc1C(=O)NC1CNCC(F)C1 (stereo not shown)	PIK3CG	KINOMEscan	–	1 µM	reference: control	remaining binding	5.3%
Cn1ncc(-c2ccc3c(=O)[nH]nc(CN)c3c2)c1-c1c(F)c(Cl)cc(OC2CC2)c1C#N	NCI-H2170	cell viability, inhibitor, CellTiter-Glo	–	120 h, baseline-subtracted	–	IC50	0.06 µM
Cc1cc(Cl)cc(-c2ccnc3cc(CN4C(=O)C5C(C4=O)C5(C)C)sc23)c1C[C@@H]1CNCCO1 (stereo partly shown)	CHP-212 resistant	PI flow cytometry	–	0.1 µM, 24 h	–	G2/M phase cells	13.6%
[2H]C([2H])([18F])Oc1cc(C(=O)OCC2CCN(CCCC)CC2)ccc1N	–	5-HT4 receptor binding, PET	rhesus monkey (Macaca mulatta), brain thalamus	dose not given, baseline scan, unit not given	reference: cerebellum reference region	binding potential BPND	0.38 ± 0.09
CSC(=S)N/N=C(\C)c1ccc(S(=O)(=O)N2CCC(C)CC2)cc1	HCT-116	flow cytometry	–	3.66 µM (IC50), 72 h	–	cells in G0/G1 phase	39.6%
CC(C)Cc1ccc(C(C)C(=O)[Se]CC(=O)Nc2cccc(C(F)(F)F)c2)cc1 (stereo not shown)	NCI60 breast subpanel	NCI60 five-dose screen	–	–	–	GI50	1.88 µM
